Measurements from different studies.
“And” joins repeats or separate records; there may be more than shown.
Target: Ephrin type-A receptor 8 (EPHA8, Homo sapiens, UniProt P29322)

NC(=O)[C@@H](O)C[C@H]1CCc2sc3ncnc(O[C@H]4CC[C@H](N5CCOCC5)CC4)c3c21
inhibition (enzyme activity, inhibitor; 10 µM): 21%

C=CC(=O)Nc1cccc(-c2cnc3[nH]cc(C(=O)NC(C)(C)C)c3n2)c1
inhibition (kinase activity; 0.1 µM): 6% and 4%

CCN1CCN(Cc2ccc(C(=O)Nc3ccc(C)c(NCc4cnc5[nH]ccc5c4OC)c3)cc2C(F)(F)F)CC1
remaining binding (binding, competition with immobilised ligand; 1 µM): 1.4%

Nc1ncc2c(n1)-c1c([nH]c3ccc(C4=CCOCC4)cc13)CCC2
remaining binding (binding, competition with immobilised ligand; 1 µM): 100%

O=C(Nc1ccc(Oc2ncnc3[nH]cc(-c4ccccc4)c23)c(F)c1)c1c2n(n(-c3cc(F)ccc3F)c1=O)CCCC2
inhibition (enzyme activity, inhibitor; 0.5 µM): -12%

CNC1C[S+]2CC[S+]3CC[S+](C1)[Ru-4]321([N]=C=S)[n]2c3ccc(OC)cc3c3c4c(c5cc(F)c[n+]1c5c32)C(=O)NC4=O (stereo not drawn)
remaining binding (KinomeScan; 0.1 µM; relative to: untreated): 100%

COc1c(OCCCN2CCOCC2)ccc2c1N=C(NC(=O)c1cnc(N)nc1)N1CCN=C21
remaining activity (kinase activity, inhibitor; 1 µM; relative to: untreated control): 109%

CN1CCN(Cc2ccc(-c3ccc(CO[C@H]4CCC[C@@H]4NC(=O)c4cc(-c5cnn(C)c5)cnc4N)cc3)cc2)CC1
inhibition (enzyme activity, inhibitor; 0.1 µM): -4%

CNC(=O)C1CCN(c2cc(C)c(F)cc2NC(=O)c2ccc(-c3cc(O)ccc3C)c(C)c2)CC1
remaining binding (binding, competition with immobilised ligand; 1 µM): 1.3%

COc1cc(Nc2nccc(-c3cnn4nc(OC)ccc34)n2)cc(C(F)(F)F)c1
remaining binding (binding, competition with immobilised ligand; 1 µM): 100%

Cc1cccc(O[C@H]2CCC[C@@H](C(C)CNCc3ccncc3)C2)c1 (relative stereo)
inhibition (cell-free assay; 10 µM): -4%

C=CC(=O)N1CCc2ccc(-n3c(=O)ccc4cnc5ccc(-c6cnn(C)c6)cc5c43)cc21
remaining binding (KINOMEscan; 1 µM; relative to: DMSO control): 96%

COc1c(Cl)cccc1Nc1c(-c2ccncc2C#C[C@@]2(C)CCCN2C(=O)/C=C/CN(C)C)[nH]c2c1C(=O)NCC2
remaining binding (cell-free assay, competition with immobilised ligand; 3 µM): 87%

COc1ccc(NC(=O)Nc2ccc3c(c2)C(=O)N(C(C)CO)CC(C)C(CN(C)Cc2ccc4c(c2)OCO4)O3)cc1 (stereo not drawn)
remaining activity (kinase activity, KinaseProfiler; 0.03 µM, species human; relative to: control): 96%

Cc1ccc(-c2c(/C=C(\C#N)C(=O)NC(C)C)n(CCCO)c3ncnc(N)c23)cc1
remaining binding (cell-free assay, competition with immobilised ligand; 1 µM): 66%

Repeated from above:
Cc1cccc(O[C@H]2CCC[C@@H](C(C)CNCc3ccncc3)C2)c1 (relative stereo)
inhibition (cell-free assay; 10 µM): -4%
